Published values pooled from the literature.
Protocols differ between the studies behind these lines. Values joined by “and” are separate records of one study, mostly repeats; a detail may differ. ± gives the spread as reported.

COc1ccc2c(c1)c1ccc3c(c1n2C)C(=O)C=CC3=O — efficacy (LDR; silenced CMV-GFP reporter derepression, qHTS): 41%
CSc1cc(Oc2ccnc3[nH]c(=O)cnc23)ccc1NC(=O)Nc1cc(C(C)(C)C)nn1-c1ccccc1 — phospho ratio (patient-derived cell line; RPPA, refers to: phosphorylated Tuberin; human; 1 µM, 4 h; baseline: DMSO): 1.16
CC(=O)N[C@@H](CS)C(=O)O — S phase cells (HeLa; PI flow cytometry; concentration not given, 48 h): 29.6 ± 4.2%
O=C(/C=C/C=C/C=C/C1CCCCC1)NC1=C[C@@](O)(/C=C/C=C/C=C/C(=O)NC2=C(O)CCC2=O)[C@@H]2O[C@@H]2C1=O — GI50 (SHP77; cell growth, CellTiter-Glo; 78 h): 9.49 µM
Cn1nc(-c2ccc(Cl)cc2)nc2c(=O)n(C)c(=O)nc1-2 — efficacy (LDR; silenced CMV-GFP reporter derepression, qHTS): 33%
CC/C(=N\NC(=O)NCc1cccc(O)c1)c1ccc(O)c(C)c1O — log ratio (SK-OV-3; gene expression, microarray, refers to: PSG1; 10 µM, 24 h; baseline: DMSO): 3.86
O=P1(C2CCCCC2)CCCCC1 — reduction of cell number (SW480; trypan blue; IC50, 72 h; baseline: untreated): 45 to 53%
CC(C)(CO[P@@](=O)(O)O[P@@](=O)(O)OC[C@H]1O[C@@H](n2cnc3c(N)ncnc32)[C@H](O)[C@@H]1OP(=O)(O)O)[C@@H](O)C(=O)NCCC(=O)NCCSC(=O)CC(=O)O — log2 fold change (binding, MIDAS equilibrium dialysis LC-MS; A2AR-BRIL thermostabilized; concentration not given; baseline: no-protein control): -0.165
COc1ccccc1OCC(=O)N/N=C/C=C/c1ccc([N+](=O)[O-])o1 — efficacy (LDR; silenced CMV-GFP reporter derepression, qHTS): 83%
Cc1nn(CC(F)(F)F)cc1Nc1ncc(Br)c(NCc2ccc(S(N)(=O)=O)cc2)n1 — phospho-TBK1/TBK1 ratio (RAW-ISG; TBK1 phosphorylation, western blot; 10 µM, together with: poly(I:C); baseline: DMSO): 0.271
Cc1nn(-c2ccccc2)c(C)c1C(=O)Nc1ccc2ccccc2n1 — inhibition (HEK293 Wnt luciferase reporter; Wnt signaling; 1 µM): > 70%
CCCCS(=N)(=O)CCC(N)C(=O)O (stereo not drawn) — cellular GSH concentration (OVCAR-5; LC-ESI-MS/MS, refers to: glutathione; 100 µM, 12 h): 13.9 ± 0.5 µM
C[C@H](Nc1ccc2c(c1)OCCn1cc(N3C(=O)OC[C@H]3C(F)F)nc1-2)C(N)=O — Hill coefficient GR curve (MDA-MB-361; cell growth, CellTiter-Glo; 120 h): 1.14
COc1cnc2cccc(N3CCc4c(cc(Cn5ccnc5C)cc4-c4cn(C)nc4C(F)(F)F)C3=O)c2c1 — EC50 (DOHH-2; cell growth, inhibitor; 120 h): 1.86 µM
O=C(C[C@@H](C(F)F)n1ccc(F)n1)N1CCC(O)(Cn2cnc3c(cnn3-c3ccc(F)cc3)c2=O)CC1 — cells in G1 phase (CHP-212 parental (wild-type USP7); PI flow cytometry; 1 µM, 24 h): 72.2% and 69.3% and 82.8%
Cc1cc(Nc2ncc(Cl)c(Nc3ccccc3S(=O)(=O)C(C)C)n2)c(OC(C)C)cc1C1CCNCC1 — log2 fold change (CLB-BAR; phosphoproteomics LC-MS/MS, refers to: FNBP1L phosphorylation; 200 nM, 60 min; baseline: untreated): -1.6
CCc1cnc(N2CCC(c3nc(COc4ccc(-n5cnnn5)cc4)cs3)CC2)nc1 — normalized enrichment score (HEK-293T; RNA-seq GSEA, refers to: Hallmark androgen response; concentration not given; direction not given): 1.17
Nc1cccc2c1C(=O)N(C1CCC(=O)NC1=O)C2=O (stereo not drawn) — viability (MM1.S; XTT; 1.6 µM; baseline: untreated): 25%
CCn1cc(-c2cc(Cn3ccoc3=N)cc3c2CCN([C@@H](C)c2cc(OC)ccn2)C3=O)c(C(F)(F)F)n1 — EC50 (WM-115; cell growth, inhibitor; 120 h): 0.0433 µM
CCOC(=O)CSc1nc(-c2ccc(Cl)cc2)c2c(NC(=O)c3ccccc3)nnc-2[nH]1 — cell growth (TK-10; SRB; 10 µM, NCI60 single-dose screen; baseline: untreated): 125%
CCCCc1oc2ccc(NS(C)(=O)=O)cc2c1C(=O)c1ccc(OCCCN(CCCC)CCCC)cc1 — fold change (human embryonic stem cell aggregates; mRNA level, microarray, refers to: GDF10; 0.5 µM, 120 h; baseline: untreated, up-regulated): 1.9 fold
O=S(=O)(NNc1nnc(Cl)c2ccccc12)c1ccc(F)cc1 — cytotoxicity (Vero; MTT; 31.25 µg/mL): 0.16%
CCn1cc(-c2cc(Cn3ccnc3)cc3c2CCN([C@H](c2cc(OC)ccn2)C2CC2)C3=O)c(C(F)(F)F)n1 — EC50 (KLM1; cell growth, inhibitor; 120 h): > 30 µM
C[C@H]1[C@@H](O)O[C@@H]2O[C@@]3(C)CC[C@H]4[C@H](C)CC[C@@H]1[C@@]24OO3 — early apoptotic cells (THP-1; annexin V/PI flow cytometry, refers to: annexin V+/PI-; 1.6 µM, 24 h): 2.8%
c1ccc2[nH]ccc2c1 — mRNA level, LS mean (HCT-8; RNA-seq, refers to: CCNG2; concentration not given): 63.7 counts per million
CCCCN1CCN(c2ccc3nc(-c4ccc5nc(-c6cc(OC)ccc6OC)[nH]c5c4)[nH]c3c2)CC1 — growth percent (SR; SRB; 10 µM, 48 h): 72.5%
C[C@H](NC(=O)C(=O)Nc1ccccc1C(C)(C)C)C(=O)N[C@@H](CC(=O)O)C(=O)COc1c(F)c(F)cc(F)c1F — PI-positive cells (mouse thymocytes; flow cytometry; 10 µM, without FasL): 118% and 110% and 117%
Nc1nnc(-c2ccccc2O)cc1N1CCN(Cc2ccc(OCCOCCNc3cccc4c3C(=O)N(C3CCC(=O)NC3=O)C4=O)c(F)c2)CC1 (stereo not drawn) — sites with decreased accessibility (H1975 SMARCA4 wild type; ATAC-seq; 1 µM, 96 h): 5.1%
CC#CC(=O)N1CC[C@@H](n2cc(-c3ccc(Oc4c(F)cccc4F)cc3)c3c(N)n[nH]c(=O)c32)C1 — GI50 (RL; cell growth; 72 h): 8.25 µM
O=C1CN(c2nc(-c3ccccc3)c3cc(Cl)ccc3n2)c2ccccc2N1 — efficacy (LDR; silenced CMV-GFP reporter derepression, qHTS): 26%
Cc1c(C)c2c(c(C)c1O)CCC(C)(COc1ccc(CC3SC(=O)NC3=O)cc1)O2 (stereo not drawn) — IC50 (iPSC-derived hepatocytes B1; cell viability; 48 h, differentiation day 23): 72 µM
O=C(COc1ccc(Cl)cc1)NC12CC(c3nnc([C@H]4C[C@@H](OC(F)(F)F)C4)o3)(C1)C2 — phospho-eIF2α level (H4 expressing GFP-TDP-43 fragment; 1 µM): no effect
CCCCCCCCCCCCCCC/C(NCc1ccccc1)=C1/C(=O)OC(CO)C1=O (stereo not drawn) — G1 phase cells (G2-synchronized tsFT210 cells; flow cytometry; 50 µM, 4 h, 32 °C, release from G2 arrest): 31.4%
C=Cc1c2[n-]c(c1C)/C=c1\[n-]/c(c(C)c1C=C)=C\c1[n-]c(c(CCC(=O)O)c1C)/C=c1\[n-]c(c(C)c1CCC(=O)O)=C2.[Sn+4] — fold change (SH-SY5Y; RNA-seq, refers to: XYLT1 mRNA; 5 µM, 5 h; baseline: untreated cells): 2.1
Cn1cc(Nc2nccc(-c3ccc4c(c3)CN(C3COC3)CC[C@H]4NC(=O)c3cn(C(C)(C)C)nn3)n2)cn1 — pathway activation z-score (mouse splenic B cells; refers to: IL-3 signalling; 30 mg/kg, IgD-activated in vivo; baseline: vehicle, direction not given): 3
Cc1cnc2ccc3c(c2n1)N1CCC(O)N=C1N3C (stereo not drawn) — colony number (BALB/c 3T3; colony forming efficiency; 10 µM): 0 colonies per plate
NCCC(=O)N[C@@H](Cc1cnc[nH]1)C(=O)O — log2 fold change (binding, MIDAS equilibrium dialysis LC-MS; A2AR-BRIL thermostabilized; concentration not given; baseline: no-protein control): -0.191
Cc1nc(N(Cc2ccccc2)c2ccc3c(c2)/C(=C/c2ccccc2)C(=O)N3Cc2ccccc2)c2ccccc2n1 (mixture of isomers) — reduction of wound healing rate (LLC; 2.0 µM, 24 h; baseline: untreated): 38.1%
CC(=O)Nc1cccc(-n2c(=O)n(C3CC3)c(=O)c3c(Nc4ccc(I)cc4F)n(C)c(=O)c(C)c32)c1 — fractional effect (MeWo (NF1); cell viability, resazurin; 6.25 nM, 72 h; baseline: DMSO): 0.399 and 0.207
Cn1cc(-c2ccc(-c3cncc(Cl)c3N3CCC4(CCNC4=O)CC3)cc2)cn1 — log2 fold change (COLO 205; gene expression, microarray, refers to: FAM65C mRNA; concentration not given, 2 h; baseline: untreated cells): -1.75
CC(C)(c1ccc(O)cc1)c1ccc(O)cc1 — G2 phase cells (HepG2 spheroids; Hoechst flow cytometry; 0.1 µM, 24 h): 20.7 ± 4.97%
Cn1cnc2c1c(=O)n(CC(=O)Nc1c(Cl)cccc1Cl)c(=O)n2C — cytotoxicity (Vero; MTT; 1000 µg/mL): 92%
CC(=O)c1nn(-c2ccc(Cl)cc2)/c(=N/N=C(\C)c2ccc(NC(=O)c3ccc(C)cc3)cc2)s1 — toxicity (HepG2; 2.5 µM): 97.2%
O=C1N=C(N2CCCCC2)S/C1=C\c1ccc(O)cc1 — EC50 (NG108-cl; clomeleon fluorescence, refers to: intracellular chloride reduction; 5 h): inactive
C=CC1=C(C)c2cc3[n-]c(cc4nc(cc5[n-]c(cc1n2)c(C)c5C=C)C(C)=C4CCC(=O)O)c(CCC(=O)O)c3C.[Zn+2] — fold change (SH-SY5Y; RNA-seq, refers to: HSPB8 mRNA; 5 µM, 5 h; baseline: untreated cells): 1.85
Clc1nc(NCc2ccco2)c2[nH]cnc2n1 — ΔPSI (FD iPSC-derived cardiomyocytes; alternative splicing, RNA-seq, refers to: FANCL exon chr2(-):58162865-58162947; unit not given; baseline: DMSO minus compound): -0.302
CCCCOC(=O)Cn1c2ccc(OC)cc2c2nc3ccccc3nc21 — efficacy (LDR; silenced CMV-GFP reporter derepression, qHTS): 50%
CN1C(=O)C(=O)c2cc3c(c4c2c1cc1ccccc14)OCO3 — inhibition (S102; cytotoxicity, MTT; 50 µg/mL, 48 h): < 50%
O=c1c2ccccc2nc(COc2ccccc2)n1/N=C/c1c[nH]c2ccccc12 — efficacy (LDR; silenced CMV-GFP reporter derepression, qHTS): 109%
COc1cc2ncnc(Nc3ccc(Oc4ccccc4)cc3C)c2cc1OC — viability (MeWo (NF1); resazurin; 3 µM, 72 h, together with: trametinib 0 nM): 82.9%
N#Cc1c(Oc2ccc(F)c(NC(=O)Cc3cccc(C(F)(F)F)c3)c2)ccc2nc(NC(=O)C3CC3)sc12 — IC75 (SK-MEL-239 C4; ERK phosphorylation, inhibitor, Western blot, refers to: p-ERK/total ERK; 1 h): 0.542 µM

For quick reference, copied from above:
O=C(COc1ccc(Cl)cc1)NC12CC(c3nnc([C@H]4C[C@@H](OC(F)(F)F)C4)o3)(C1)C2 — phospho-eIF2α level (H4 expressing GFP-TDP-43 fragment; 1 µM): no effect
CCCCCCCCCCCCCCC/C(NCc1ccccc1)=C1/C(=O)OC(CO)C1=O (stereo not drawn) — G1 phase cells (G2-synchronized tsFT210 cells; flow cytometry; 50 µM, 4 h, 32 °C, release from G2 arrest): 31.4%
C=Cc1c2[n-]c(c1C)/C=c1\[n-]/c(c(C)c1C=C)=C\c1[n-]c(c(CCC(=O)O)c1C)/C=c1\[n-]c(c(C)c1CCC(=O)O)=C2.[Sn+4] — fold change (SH-SY5Y; RNA-seq, refers to: XYLT1 mRNA; 5 µM, 5 h; baseline: untreated cells): 2.1
Cn1cc(Nc2nccc(-c3ccc4c(c3)CN(C3COC3)CC[C@H]4NC(=O)c3cn(C(C)(C)C)nn3)n2)cn1 — pathway activation z-score (mouse splenic B cells; refers to: IL-3 signalling; 30 mg/kg, IgD-activated in vivo; baseline: vehicle, direction not given): 3
Cc1cnc2ccc3c(c2n1)N1CCC(O)N=C1N3C (stereo not drawn) — colony number (BALB/c 3T3; colony forming efficiency; 10 µM): 0 colonies per plate
NCCC(=O)N[C@@H](Cc1cnc[nH]1)C(=O)O — log2 fold change (binding, MIDAS equilibrium dialysis LC-MS; A2AR-BRIL thermostabilized; concentration not given; baseline: no-protein control): -0.191
